Published values gathered from unrelated publications.
Each numbered part is a random draw from the data of one study; scales do not carry over between parts.
Sequence of UniProt P51955 (whole entry, looked up): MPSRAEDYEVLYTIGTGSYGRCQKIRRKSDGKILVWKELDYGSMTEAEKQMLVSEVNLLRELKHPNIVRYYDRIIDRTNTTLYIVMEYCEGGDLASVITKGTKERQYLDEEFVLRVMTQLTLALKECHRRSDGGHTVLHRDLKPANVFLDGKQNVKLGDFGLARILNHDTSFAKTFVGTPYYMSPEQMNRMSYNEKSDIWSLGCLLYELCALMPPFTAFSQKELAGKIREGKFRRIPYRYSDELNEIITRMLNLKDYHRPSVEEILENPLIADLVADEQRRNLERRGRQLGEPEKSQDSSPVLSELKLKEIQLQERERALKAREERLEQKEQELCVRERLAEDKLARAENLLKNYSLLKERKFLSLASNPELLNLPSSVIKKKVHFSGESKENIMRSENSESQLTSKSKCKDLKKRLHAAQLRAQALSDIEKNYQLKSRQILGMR
Sequence of UniProt P68400 (whole entry, looked up): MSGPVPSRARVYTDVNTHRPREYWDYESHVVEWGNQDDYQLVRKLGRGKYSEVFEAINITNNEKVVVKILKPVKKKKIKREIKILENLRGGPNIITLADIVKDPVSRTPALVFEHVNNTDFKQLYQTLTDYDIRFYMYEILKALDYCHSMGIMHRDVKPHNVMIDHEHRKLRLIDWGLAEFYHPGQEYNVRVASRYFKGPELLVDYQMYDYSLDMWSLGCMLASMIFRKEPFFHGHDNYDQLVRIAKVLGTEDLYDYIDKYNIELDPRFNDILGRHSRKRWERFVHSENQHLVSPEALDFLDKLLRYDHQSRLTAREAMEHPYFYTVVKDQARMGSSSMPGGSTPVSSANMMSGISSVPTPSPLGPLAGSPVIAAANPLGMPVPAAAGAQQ
Sequence of UniProt O95835 (whole entry, looked up): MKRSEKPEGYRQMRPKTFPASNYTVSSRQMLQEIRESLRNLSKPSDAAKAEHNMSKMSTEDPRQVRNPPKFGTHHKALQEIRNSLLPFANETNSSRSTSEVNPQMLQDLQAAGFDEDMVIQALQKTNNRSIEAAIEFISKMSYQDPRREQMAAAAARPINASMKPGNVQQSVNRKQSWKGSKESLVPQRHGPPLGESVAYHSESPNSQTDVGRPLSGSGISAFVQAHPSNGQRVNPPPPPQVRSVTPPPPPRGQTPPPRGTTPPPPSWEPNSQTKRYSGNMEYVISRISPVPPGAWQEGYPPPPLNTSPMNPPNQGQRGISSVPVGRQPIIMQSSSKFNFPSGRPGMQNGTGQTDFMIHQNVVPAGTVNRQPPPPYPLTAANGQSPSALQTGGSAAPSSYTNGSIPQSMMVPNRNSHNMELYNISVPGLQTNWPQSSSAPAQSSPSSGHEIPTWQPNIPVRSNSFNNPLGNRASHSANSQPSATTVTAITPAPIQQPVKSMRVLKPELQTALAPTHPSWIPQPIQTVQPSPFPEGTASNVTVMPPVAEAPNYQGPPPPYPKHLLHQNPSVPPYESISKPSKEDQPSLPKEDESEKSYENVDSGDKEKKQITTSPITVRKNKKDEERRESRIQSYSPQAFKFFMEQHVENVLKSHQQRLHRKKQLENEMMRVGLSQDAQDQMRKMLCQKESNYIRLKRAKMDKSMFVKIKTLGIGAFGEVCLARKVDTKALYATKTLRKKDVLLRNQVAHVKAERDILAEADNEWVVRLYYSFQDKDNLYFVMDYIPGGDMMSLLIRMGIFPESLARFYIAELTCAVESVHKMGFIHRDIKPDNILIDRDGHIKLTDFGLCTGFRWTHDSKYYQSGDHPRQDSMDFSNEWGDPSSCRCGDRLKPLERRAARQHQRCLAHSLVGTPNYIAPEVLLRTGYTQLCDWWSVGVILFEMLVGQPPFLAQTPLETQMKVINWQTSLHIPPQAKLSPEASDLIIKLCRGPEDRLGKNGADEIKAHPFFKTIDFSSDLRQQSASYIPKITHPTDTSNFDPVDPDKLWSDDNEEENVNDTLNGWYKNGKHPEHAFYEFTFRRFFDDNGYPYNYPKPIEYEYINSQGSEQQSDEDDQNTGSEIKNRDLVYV
Sequence of UniProt P36896 (whole entry, looked up): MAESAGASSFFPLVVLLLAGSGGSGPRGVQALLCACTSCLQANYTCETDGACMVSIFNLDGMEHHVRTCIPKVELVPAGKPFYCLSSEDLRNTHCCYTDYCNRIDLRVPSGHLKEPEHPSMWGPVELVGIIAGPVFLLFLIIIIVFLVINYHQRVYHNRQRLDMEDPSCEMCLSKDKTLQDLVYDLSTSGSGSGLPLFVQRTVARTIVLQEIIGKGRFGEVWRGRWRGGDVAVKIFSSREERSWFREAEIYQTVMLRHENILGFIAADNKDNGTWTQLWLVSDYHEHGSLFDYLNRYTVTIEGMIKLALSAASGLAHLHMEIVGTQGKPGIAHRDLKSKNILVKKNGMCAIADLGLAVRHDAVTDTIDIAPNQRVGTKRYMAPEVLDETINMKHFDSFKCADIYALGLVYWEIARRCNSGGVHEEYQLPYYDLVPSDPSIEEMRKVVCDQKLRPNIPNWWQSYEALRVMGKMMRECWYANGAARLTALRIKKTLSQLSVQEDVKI
Sequence of UniProt Q8N568 (whole entry, looked up): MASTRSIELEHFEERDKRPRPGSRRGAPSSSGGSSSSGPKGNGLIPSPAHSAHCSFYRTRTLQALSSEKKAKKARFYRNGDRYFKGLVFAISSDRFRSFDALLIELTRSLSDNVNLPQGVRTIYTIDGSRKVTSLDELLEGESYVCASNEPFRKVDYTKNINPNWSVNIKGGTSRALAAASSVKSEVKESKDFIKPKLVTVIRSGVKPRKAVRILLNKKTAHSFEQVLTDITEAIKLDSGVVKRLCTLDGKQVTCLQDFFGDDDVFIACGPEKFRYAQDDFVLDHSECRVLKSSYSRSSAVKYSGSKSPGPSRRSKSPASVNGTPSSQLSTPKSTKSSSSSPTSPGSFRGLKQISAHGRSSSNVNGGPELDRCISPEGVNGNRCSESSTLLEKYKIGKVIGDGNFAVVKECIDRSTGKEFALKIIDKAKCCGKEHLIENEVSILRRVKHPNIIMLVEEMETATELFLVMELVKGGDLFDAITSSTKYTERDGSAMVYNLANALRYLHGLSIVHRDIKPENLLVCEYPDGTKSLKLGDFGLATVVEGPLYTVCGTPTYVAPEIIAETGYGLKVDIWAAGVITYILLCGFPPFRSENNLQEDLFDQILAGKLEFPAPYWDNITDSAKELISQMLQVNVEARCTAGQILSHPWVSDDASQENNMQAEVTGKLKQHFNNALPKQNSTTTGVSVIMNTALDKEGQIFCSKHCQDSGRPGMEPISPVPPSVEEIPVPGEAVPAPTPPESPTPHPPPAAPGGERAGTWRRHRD
Sequence of UniProt O00141 (whole entry, looked up): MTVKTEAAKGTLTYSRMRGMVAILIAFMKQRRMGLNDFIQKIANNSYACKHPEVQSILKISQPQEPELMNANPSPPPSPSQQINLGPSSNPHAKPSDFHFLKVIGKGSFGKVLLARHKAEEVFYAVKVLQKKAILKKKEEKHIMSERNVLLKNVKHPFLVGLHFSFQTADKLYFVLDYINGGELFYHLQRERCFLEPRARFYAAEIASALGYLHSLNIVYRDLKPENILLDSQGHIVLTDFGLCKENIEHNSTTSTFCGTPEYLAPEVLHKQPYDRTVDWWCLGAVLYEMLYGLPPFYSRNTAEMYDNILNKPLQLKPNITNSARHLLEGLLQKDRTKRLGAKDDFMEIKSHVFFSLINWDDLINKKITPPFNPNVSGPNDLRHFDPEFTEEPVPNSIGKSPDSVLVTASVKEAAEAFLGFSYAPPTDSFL
Sequence of UniProt O15264 (whole entry, looked up): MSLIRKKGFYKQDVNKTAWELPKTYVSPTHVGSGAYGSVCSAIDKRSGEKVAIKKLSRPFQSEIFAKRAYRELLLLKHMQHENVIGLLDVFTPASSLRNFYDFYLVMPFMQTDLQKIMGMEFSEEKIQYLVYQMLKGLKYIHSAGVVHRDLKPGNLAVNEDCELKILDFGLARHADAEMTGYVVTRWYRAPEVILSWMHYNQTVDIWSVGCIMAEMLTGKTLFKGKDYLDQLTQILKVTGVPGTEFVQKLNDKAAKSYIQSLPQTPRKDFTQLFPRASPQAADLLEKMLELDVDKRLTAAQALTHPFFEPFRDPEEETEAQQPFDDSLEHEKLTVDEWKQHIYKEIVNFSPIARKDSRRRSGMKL

Sample 1 — cell line: A-375; tested at: 100 µM; time: 36 h
For `O=C(O)c1ccc(S(=O)(=O)N(Cl)Cl)cc1`, the viability was 107%.
With `c1ccc2c(CC3=NCCN3)cccc2c1` the viability was 113%.
`CN(C)CCN(Cc1ccccc1)c1ccccn1` gave a viability of 95.4%.
With `CCCCCCCCCCCCCCCC(=O)OC/C=C(C)/C=C/C=C(C)/C=C/C1=C(C)CCCC1(C)C` the viability was 47.7%.
The viability of `CCS(=O)(=O)CCn1c([N+](=O)[O-])cnc1C` is reported as 102%.
`CS(=O)(=O)n1cc2c(n1)CN([C@H]1CO[C@H](c3cc(F)ccc3F)[C@@H](N)C1)C2` has a viability of 80.5%.
`C[C@@H](O)[C@H]1C(=O)N2C(C(=O)O)=C(S[C@@H]3CN[C@H](CNS(N)(=O)=O)C3)[C@H](C)[C@H]12` has a viability of 110%.
The viability of `O=S(=O)(O)Oc1ccc(C(c2ccc(OS(=O)(=O)O)cc2)c2ccccn2)cc1` is reported as 103%.
With `COCCOC(=O)C1=C(C)NC(C)=C(C(=O)OC(C)C)C1c1cccc([N+](=O)[O-])c1` (stereo not shown) the viability was 7.04%.
With `CC(=O)O[C@H]1C[C@@H]2CC[C@@H]3[C@H](CC[C@@]4(C)[C@H]3C[C@H]([N+]3(C)CCCCC3)[C@@H]4OC(C)=O)[C@@]2(C)C[C@@H]1N1CCCCC1` the viability was 107%.
`C[C@@H]1C[C@H]2[C@@H]3CCC4=CC(=O)C=C[C@]4(C)[C@@]3(Cl)[C@@H](O)C[C@]2(C)[C@@]1(OC(=O)c1ccco1)C(=O)CCl` has a viability of 6.31%.
`CCC(C)(C)c1ccc(CC(C)CN2C[C@@H](C)O[C@@H](C)C2)cc1` (stereo partly shown) has a viability of -1.45%.
`COC(=O)c1ccccc1O` has a viability of 107%.
For `CCN(CC)CCOc1ccc2c(c1)C(=O)c1cc(OCCN(CC)CC)ccc1-2`, the viability was 7.17%.

Sample 2 — read-out: enzyme activity; mode: inhibitor; tested at: 0.5 µM; baseline: control
Target: Aurora kinase B (AURKB, Homo sapiens, UniProt Q96GD4)
Sequence of UniProt Q96GD4 (whole entry, looked up): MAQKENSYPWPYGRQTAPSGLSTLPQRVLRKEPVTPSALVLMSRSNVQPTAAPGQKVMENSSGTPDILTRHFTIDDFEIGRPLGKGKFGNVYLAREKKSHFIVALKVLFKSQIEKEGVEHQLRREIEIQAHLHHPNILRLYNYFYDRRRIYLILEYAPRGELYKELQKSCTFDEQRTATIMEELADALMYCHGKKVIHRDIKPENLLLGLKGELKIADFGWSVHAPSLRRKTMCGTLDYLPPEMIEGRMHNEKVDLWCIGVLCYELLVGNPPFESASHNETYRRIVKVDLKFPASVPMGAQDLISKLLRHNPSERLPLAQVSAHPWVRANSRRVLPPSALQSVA
For `Cc1cc2ncc(-c3ccccc3)nc2cc1C`, the remaining activity was 85.4%.
For `CCOc1nc(NC(=O)Cc2cc(OC)ccc2OC)cc(N)c1C#N`, the remaining activity was 105%.
`O=C1C(Cl)=C(N2C(=O)CCC2=O)C(=O)c2ccccc21` has a remaining activity of 103%.
For `Nc1cccc(-c2cc3c(Oc4cccc(O)c4)ncnc3[nH]2)c1`, the remaining activity was 71.9%.
With `COc1cc2ncnc(Nc3ccc(O)c(Br)c3)c2cc1OC` the remaining activity was 63.5%.
`CN(C)C[C@H]1CCn2c(c(C3=C(c4cn(C)c5ccccc45)C(=O)NC3=O)c3ccccc32)C1` gave a remaining activity of 96.3%.
With `N#Cc1c(NC(=O)c2cccc3ccccc23)sc2c1CCCC2` the remaining activity was 103%.
The remaining activity of `CCN(CC)CCNC(=O)c1c(C)[nH]c(/C=C2\C(=O)Nc3ccc(Cl)cc32)c1C` is reported as 31.9%.
For `N#C/C(=C\c1ccc(O)c(O)c1)C(=O)NCc1ccccc1`, the remaining activity was 94.4%.
For `c1ccc(-c2[nH]ncc2-c2ccnc3ccccc23)nc1`, the remaining activity was 96%.
`COc1cc2c(cc1OC)-c1[nH]nc(Nc3cccc(F)c3)c1C2` has a remaining activity of 79.2%.
For `O=C(Nc1cccc(Nc2nccc(Nc3cccc(C(F)(F)F)c3)n2)c1)C1CC1`, the remaining activity was 72.8%.
`CN([C@@H](Cc1ccc(OS(=O)(=O)c2cccc3cnccc23)cc1)C(=O)N1CCN(c2ccccc2)CC1)S(=O)(=O)c1cccc2cnccc12` gave a remaining activity of 104%.
For `Cc1nc2cc3nc(-c4cccs4)cnc3cc2n1C`, the remaining activity was 84.9%.
The remaining activity of `C[C@@H]1CCN(C(=O)CC#N)C[C@@H]1N(C)c1ncnc2[nH]ccc12` is reported as 99.2%.
For `COc1cc2ncnc(Nc3cccc(Cl)c3)c2cc1OC`, the remaining activity was 74.4%.
With `CCN(CC)C(=O)c1ccc(Nc2nc(OCC3CCCCC3)c3[nH]cnc3n2)cc1` the remaining activity was 30.1%.
`Ic1cccc(CSc2nnc(-c3ccncc3)o2)c1` has a remaining activity of 99%.
`Cc1cn(-c2cc(NC(=O)c3ccc(C)c(Nc4nccc(-c5cccnc5)n4)c3)cc(C(F)(F)F)c2)cn1` has a remaining activity of 104%.
For `Cn1nc2c3c(cccc31)C(=O)c1ccccc1-2`, the remaining activity was 83.5%.
With `O=C(NC(NC(=S)Nc1ccc(F)c([N+](=O)[O-])c1)C(Cl)(Cl)Cl)C(c1ccccc1)c1ccccc1` (stereo not shown) the remaining activity was 95.3%.
The remaining activity of `c1ccc(-c2cnc(Nc3ccc(OCCN4CCCC4)cc3)s2)cc1` is reported as 75.8%.

Sample 3 — read-out: RNA clamping; technique: fluorescence polarization; tested at: concentration not given; with: FAM-labelled poly r(AG)8 RNA
Target: Eukaryotic initiation factor 4A-III (Homo sapiens, UniProt P38919)
Sequence of UniProt P38919 (whole entry, looked up): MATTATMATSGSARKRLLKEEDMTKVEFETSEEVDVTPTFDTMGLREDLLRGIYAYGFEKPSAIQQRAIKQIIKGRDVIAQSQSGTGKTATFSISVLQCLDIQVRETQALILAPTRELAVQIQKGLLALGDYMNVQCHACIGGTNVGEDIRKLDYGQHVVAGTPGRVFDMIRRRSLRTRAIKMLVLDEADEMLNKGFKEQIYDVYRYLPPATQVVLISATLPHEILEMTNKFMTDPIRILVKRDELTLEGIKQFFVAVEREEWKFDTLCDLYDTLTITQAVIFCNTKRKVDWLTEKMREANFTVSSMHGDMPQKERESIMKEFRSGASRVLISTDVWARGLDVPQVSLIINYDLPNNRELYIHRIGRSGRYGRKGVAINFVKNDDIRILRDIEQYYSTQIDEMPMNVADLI
`COC(=O)[C@@H]1[C@@H](c2ccccc2)[C@]2(c3ccc(OC)cc3)Oc3cc(OC)cc(OC)c3[C@@]23NC(c2ccc(OC)cc2)=N[C@@]13O`: “fluorescence polarization change” 9.6 mP.
Under “fluorescence polarization change”, `COc1ccc([C@@]23Oc4cc(OC)cc(OC)c4[C@]2(O)[C@H](O)[C@H](C(=O)c2cc4ccccc4n2C)[C@H]3c2ccccc2)cc1` is recorded as 8.6 mP.
For `CCCN(CCC)[C@@]12C(=O)[C@H](C(=O)OC)[C@@H](c3ccccc3)[C@]1(c1ccc(OC)cc1)Oc1cc(OC)cc(OC)c12`, “fluorescence polarization change” read 6.2 mP.
For `COc1ccc([C@@]23Oc4cc(OC)cc(OC)c4[C@]2(O)[C@H](O)[C@H](C(=O)c2cc4ccccc4o2)[C@H]3c2ccccc2)cc1`, “fluorescence polarization change” read 5.1 mP.
For `COC(=O)[C@H]1C(=O)[C@@]2(OC)c3c(OC)cc(OC)cc3O[C@@]2(c2ccc(OC)cc2)[C@@H]1c1ccccc1`, “fluorescence polarization change” read -0.5 mP.
For `COc1ccc([C@]23Oc4cc(OC)cc(OC)c4[C@](O)([C@H](C(=O)OCc4ccccc4)[C@H]2c2ccccc2)[C@@H]3O)cc1`, “fluorescence polarization change” read -8.9 mP.
`CCCN[C@@]12C(=O)[C@H](C(=O)N(C)C)[C@@H](c3ccccc3)[C@]1(c1ccc(OC)cc1)Oc1cc(OC)cc(OC)c12`: “fluorescence polarization change” 1.3 mP.
`COc1ccc([C@@]23Oc4cc(OC)cc(OC)c4[C@]2(O)[C@H](O)[C@H](C(=O)c2nccn2C)[C@H]3c2ccccc2)cc1`: “fluorescence polarization change” 21.2 mP.
Under “fluorescence polarization change”, `COc1ccc([C@@]23Oc4cc(O)cc(OC)c4[C@]2(O)[C@H](O)[C@H](C(=O)N(C)OC)[C@H]3c2ccccc2)cc1` is recorded as -0.3 mP.
For `CONC(=O)[C@H]1[C@@H](O)[C@@]2(O)c3c(OC)cc(F)cc3O[C@@]2(c2ccc(Br)cc2)[C@@H]1c1ccccc1`, “fluorescence polarization change” read 60.3 mP.
`COC(=O)[C@H]1C(=O)[C@@]2(NCC3CCNCC3)c3c(OC)cc(OC)cc3O[C@@]2(c2ccc(OC)cc2)[C@@H]1c1ccccc1` — result for “fluorescence polarization change”: 7.3 mP.
`COC(=O)[C@H]1C(=O)[C@@]2(NCC3CCOCC3)c3c(OC)cc(OC)cc3O[C@@]2(c2ccc(OC)cc2)[C@@H]1c1ccccc1` — result for “fluorescence polarization change”: -0.6 mP.
`COC(=O)[C@@H]1[C@@H](c2ccccc2)[C@]2(c3ccc(OC)cc3)Oc3cc(OC)cc(OC)c3[C@@]23N2CCCC2=N[C@@]13O`: “fluorescence polarization change” 9.4 mP.
For `C#CCOc1cc(OC)c2c(c1)O[C@@]1(c3ccc(OC)cc3)[C@H](c3ccccc3)c3c(nc(-c4ccccc4)[nH]c3=O)[C@@]21O`, “fluorescence polarization change” read 0.3 mP.
For `COC(=O)[C@@H]1[C@@H](c2ccccc2)[C@]2(c3ccc(OC)cc3)Oc3cc(OC)cc(OC)c3[C@@]23OC(c2cccnc2)=N[C@@]13O`, “fluorescence polarization change” read 3.2 mP.
For `COc1cc(OC)c2c(c1)O[C@@]1(c3ccc(OC)c(O)c3)[C@H](c3ccccc3)[C@@H](C(=O)N(C)OC)[C@@H](O)[C@@]21O`, “fluorescence polarization change” read 26.1 mP.
`COc1ccc([C@@]23Oc4cc(OC)cc(OC)c4[C@]2(O)[C@H](O)[C@H](C(=O)c2oc4ccccc4c2C)[C@H]3c2ccccc2)cc1` — result for “fluorescence polarization change”: 2.8 mP.
For `COc1ccc([C@]23Oc4cc(OC)cc(OC)c4[C@@]2(O)c2nc(-c4ccc(C)cc4)[nH]c(=O)c2[C@@H]3c2ccccc2)cc1`, “fluorescence polarization change” read 21.5 mP.

Sample 4 — read-out: cell-free assay; technique: competition with immobilised ligand; tested at: 1 µM
Structure (SMILES): CCCCN(CCCC)C(=O)CN1C[C@H](c2cc(OC)c3c(c2)OCO3)[C@@H](C(=O)O)[C@@H]1CC(C)(C)CCC
It gave 68.5% for remaining binding (Casein kinase II subunit alpha (CSNK2A1, Homo sapiens, UniProt P68400)).
The remaining binding was 100% (Serine/threonine-protein kinase DCLK2 (DCLK2, Homo sapiens, UniProt Q8N568)).
Phosphatidylinositol 4,5-bisphosphate 3-kinase catalytic subunit alpha isoform (PIK3CA, Homo sapiens, UniProt P42336) — remaining binding: 89.7%.
For Ephrin type-B receptor 3 (EPHB3, Homo sapiens, UniProt P54753): remaining binding read 100%.
For Mitogen-activated protein kinase kinase kinase 3 (MAP3K3, Homo sapiens, UniProt Q99759): remaining binding read 94.3%.
It gave 100% for remaining binding (Cyclin-dependent kinase 15 (CDK15, Homo sapiens, UniProt Q96Q40)).
It gave 100% for remaining binding (Mitogen-activated protein kinase 7 (MAPK7, Homo sapiens, UniProt Q13164)).
The remaining binding was 80.7% (Serine/threonine-protein kinase 38 (STK38, Homo sapiens, UniProt Q15208)).
The remaining binding was 100% (Serine/threonine-protein kinase LATS1 (LATS1, Homo sapiens, UniProt O95835)).
For Mitogen-activated protein kinase 13 (MAPK13, Homo sapiens, UniProt O15264): remaining binding read 100%.
For Serine/threonine-protein kinase Nek2 (NEK2, Homo sapiens, UniProt P51955): remaining binding read 100%.
The remaining binding was 96.4% (Activin receptor type-1B (ACVR1B, Homo sapiens, UniProt P36896)).
Serine/threonine-protein kinase Sgk1 (SGK1, Homo sapiens, UniProt O00141) — remaining binding: 69.2%.
It gave 100% for remaining binding (Aurora kinase B (AURKB, Homo sapiens, UniProt Q96GD4)).
It gave 100% for remaining binding (Casein kinase I isoform alpha-like (CSNK1A1L, Homo sapiens, UniProt Q8N752)).
For Homeodomain-interacting protein kinase 3 (HIPK3, Homo sapiens, UniProt Q9H422): remaining binding read 100%.

Excerpt of the above (sample 4):
Phosphatidylinositol 4,5-bisphosphate 3-kinase catalytic subunit alpha isoform (PIK3CA, Homo sapiens, UniProt P42336) — remaining binding: 89.7%.
The remaining binding was 100% (Serine/threonine-protein kinase DCLK2 (DCLK2, Homo sapiens, UniProt Q8N568)).
It gave 100% for remaining binding (Aurora kinase B (AURKB, Homo sapiens, UniProt Q96GD4)).
It gave 100% for remaining binding (Mitogen-activated protein kinase 7 (MAPK7, Homo sapiens, UniProt Q13164)).
For Serine/threonine-protein kinase Nek2 (NEK2, Homo sapiens, UniProt P51955): remaining binding read 100%.
The remaining binding was 80.7% (Serine/threonine-protein kinase 38 (STK38, Homo sapiens, UniProt Q15208)).
The remaining binding was 96.4% (Activin receptor type-1B (ACVR1B, Homo sapiens, UniProt P36896)).
It gave 68.5% for remaining binding (Casein kinase II subunit alpha (CSNK2A1, Homo sapiens, UniProt P68400)).
For Ephrin type-B receptor 3 (EPHB3, Homo sapiens, UniProt P54753): remaining binding read 100%.
The remaining binding was 100% (Serine/threonine-protein kinase LATS1 (LATS1, Homo sapiens, UniProt O95835)).
